{"data": "Results gathered from unrelated publications", "note": "Each numbered part is a random draw from the data of one study; scales do not carry over between parts.", "UniProt P00519, sequence (whole entry, unmodified, looked up)": "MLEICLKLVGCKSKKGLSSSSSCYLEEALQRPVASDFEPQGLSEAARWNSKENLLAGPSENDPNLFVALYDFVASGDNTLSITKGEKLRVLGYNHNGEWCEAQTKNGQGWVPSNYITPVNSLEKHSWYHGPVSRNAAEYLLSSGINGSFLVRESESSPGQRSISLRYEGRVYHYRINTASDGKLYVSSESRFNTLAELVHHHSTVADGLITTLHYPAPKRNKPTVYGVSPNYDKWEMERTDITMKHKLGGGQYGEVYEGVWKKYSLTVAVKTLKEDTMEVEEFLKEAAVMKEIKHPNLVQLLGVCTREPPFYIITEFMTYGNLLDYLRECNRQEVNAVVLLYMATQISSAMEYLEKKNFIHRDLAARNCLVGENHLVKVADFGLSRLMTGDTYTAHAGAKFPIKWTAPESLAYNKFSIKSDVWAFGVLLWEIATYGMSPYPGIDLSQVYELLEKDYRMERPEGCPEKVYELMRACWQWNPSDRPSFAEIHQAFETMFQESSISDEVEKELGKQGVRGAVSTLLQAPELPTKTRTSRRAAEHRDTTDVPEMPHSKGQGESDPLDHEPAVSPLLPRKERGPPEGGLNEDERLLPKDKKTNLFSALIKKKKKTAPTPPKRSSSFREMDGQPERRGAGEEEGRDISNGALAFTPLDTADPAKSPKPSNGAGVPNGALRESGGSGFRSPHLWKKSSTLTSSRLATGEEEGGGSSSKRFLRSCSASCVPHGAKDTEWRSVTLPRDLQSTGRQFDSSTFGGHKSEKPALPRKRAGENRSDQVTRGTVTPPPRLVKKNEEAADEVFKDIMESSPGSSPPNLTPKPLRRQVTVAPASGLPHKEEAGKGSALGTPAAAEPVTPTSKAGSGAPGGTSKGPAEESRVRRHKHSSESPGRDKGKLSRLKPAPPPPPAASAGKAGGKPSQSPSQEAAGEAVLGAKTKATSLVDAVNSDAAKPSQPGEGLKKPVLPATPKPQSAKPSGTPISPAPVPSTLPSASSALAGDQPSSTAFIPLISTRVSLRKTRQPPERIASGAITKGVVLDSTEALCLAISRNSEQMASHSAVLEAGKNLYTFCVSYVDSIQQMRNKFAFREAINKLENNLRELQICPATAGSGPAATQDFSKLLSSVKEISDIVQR", "UniProt O94806, sequence (whole entry, looked up)": "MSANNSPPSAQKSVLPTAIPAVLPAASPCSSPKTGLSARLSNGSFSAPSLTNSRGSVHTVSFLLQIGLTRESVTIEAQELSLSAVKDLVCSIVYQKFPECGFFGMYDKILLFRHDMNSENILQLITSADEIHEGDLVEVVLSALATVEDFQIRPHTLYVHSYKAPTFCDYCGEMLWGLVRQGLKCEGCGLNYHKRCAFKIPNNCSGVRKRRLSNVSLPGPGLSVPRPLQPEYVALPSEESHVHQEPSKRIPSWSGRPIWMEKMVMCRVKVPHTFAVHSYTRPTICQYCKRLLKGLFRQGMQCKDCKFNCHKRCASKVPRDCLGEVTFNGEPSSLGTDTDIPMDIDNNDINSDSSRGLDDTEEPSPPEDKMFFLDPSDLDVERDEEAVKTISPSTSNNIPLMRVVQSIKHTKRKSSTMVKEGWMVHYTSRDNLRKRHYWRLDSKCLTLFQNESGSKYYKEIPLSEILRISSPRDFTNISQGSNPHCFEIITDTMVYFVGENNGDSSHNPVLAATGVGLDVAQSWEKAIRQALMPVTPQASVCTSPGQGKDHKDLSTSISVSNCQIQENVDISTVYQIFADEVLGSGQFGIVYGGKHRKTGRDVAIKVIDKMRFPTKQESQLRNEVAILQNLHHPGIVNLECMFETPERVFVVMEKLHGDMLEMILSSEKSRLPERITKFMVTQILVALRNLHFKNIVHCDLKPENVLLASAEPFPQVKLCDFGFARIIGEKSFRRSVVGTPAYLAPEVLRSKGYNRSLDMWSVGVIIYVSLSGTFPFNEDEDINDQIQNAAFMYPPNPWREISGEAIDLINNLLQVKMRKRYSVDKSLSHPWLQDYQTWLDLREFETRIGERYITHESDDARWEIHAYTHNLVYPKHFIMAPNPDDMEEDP", "UniProt Q9P0L2, sequence (whole entry, looked up)": "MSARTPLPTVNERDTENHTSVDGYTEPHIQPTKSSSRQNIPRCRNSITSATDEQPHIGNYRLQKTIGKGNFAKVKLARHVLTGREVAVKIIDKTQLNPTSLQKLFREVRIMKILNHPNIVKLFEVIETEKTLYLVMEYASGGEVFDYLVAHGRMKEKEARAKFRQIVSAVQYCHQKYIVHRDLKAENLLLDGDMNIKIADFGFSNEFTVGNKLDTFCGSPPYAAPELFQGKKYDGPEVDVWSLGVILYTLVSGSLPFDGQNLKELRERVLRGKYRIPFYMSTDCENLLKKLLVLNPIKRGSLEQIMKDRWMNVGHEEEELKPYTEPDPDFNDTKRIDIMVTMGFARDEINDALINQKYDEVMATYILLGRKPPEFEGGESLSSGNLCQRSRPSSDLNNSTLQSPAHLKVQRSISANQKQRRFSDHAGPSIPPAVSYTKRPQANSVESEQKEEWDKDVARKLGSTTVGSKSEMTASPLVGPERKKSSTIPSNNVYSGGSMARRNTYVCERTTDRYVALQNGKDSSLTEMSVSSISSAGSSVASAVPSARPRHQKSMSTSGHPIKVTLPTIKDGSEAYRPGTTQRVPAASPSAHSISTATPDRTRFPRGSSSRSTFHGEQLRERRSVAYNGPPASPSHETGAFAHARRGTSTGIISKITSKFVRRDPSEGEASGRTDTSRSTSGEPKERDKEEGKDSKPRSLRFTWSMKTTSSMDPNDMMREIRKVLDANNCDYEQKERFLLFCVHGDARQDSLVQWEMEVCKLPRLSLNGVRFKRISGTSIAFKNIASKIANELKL", "UniProt Q9Y2U5, sequence (whole entry, looked up)": "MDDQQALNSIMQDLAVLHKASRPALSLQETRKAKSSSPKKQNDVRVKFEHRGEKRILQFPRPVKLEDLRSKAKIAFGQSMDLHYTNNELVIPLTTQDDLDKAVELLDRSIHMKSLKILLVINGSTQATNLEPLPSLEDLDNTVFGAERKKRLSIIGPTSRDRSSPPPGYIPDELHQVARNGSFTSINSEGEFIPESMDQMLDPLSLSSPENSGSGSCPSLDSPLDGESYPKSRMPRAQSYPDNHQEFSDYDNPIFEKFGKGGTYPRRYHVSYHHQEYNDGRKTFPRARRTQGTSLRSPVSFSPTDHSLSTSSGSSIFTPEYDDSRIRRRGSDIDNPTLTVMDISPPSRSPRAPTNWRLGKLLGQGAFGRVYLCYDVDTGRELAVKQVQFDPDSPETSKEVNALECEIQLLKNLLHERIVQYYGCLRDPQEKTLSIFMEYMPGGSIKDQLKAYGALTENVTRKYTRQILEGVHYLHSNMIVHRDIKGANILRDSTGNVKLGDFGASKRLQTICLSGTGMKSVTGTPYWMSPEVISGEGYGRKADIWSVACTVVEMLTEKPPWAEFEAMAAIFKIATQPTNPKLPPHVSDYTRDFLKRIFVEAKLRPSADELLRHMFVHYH", "UniProt Q8WTQ7, sequence (whole entry, looked up)": "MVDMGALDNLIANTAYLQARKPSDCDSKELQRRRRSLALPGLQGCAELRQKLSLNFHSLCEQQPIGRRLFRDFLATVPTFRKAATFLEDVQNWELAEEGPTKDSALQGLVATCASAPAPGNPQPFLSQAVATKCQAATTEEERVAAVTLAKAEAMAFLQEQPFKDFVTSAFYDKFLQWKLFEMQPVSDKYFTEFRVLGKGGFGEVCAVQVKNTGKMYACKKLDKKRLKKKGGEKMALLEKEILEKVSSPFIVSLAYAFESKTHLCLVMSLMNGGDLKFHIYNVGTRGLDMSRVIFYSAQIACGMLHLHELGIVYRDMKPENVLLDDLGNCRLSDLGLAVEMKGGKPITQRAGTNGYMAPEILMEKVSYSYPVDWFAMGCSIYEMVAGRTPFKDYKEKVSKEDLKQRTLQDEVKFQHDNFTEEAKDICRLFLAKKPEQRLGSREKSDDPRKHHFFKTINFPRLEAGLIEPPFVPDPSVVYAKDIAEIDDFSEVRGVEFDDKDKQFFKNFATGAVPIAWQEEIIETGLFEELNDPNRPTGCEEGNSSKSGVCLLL"}
{"data": "Set 1", "target": "PABPC1L2, full length, GST fusion (mouse, UniProt A0ABA7IW68)", "technique": "RNAcompete", "form": "RNA", "matrix": "in vitro", "concentration": "20 nM", "notes": "7-mer, probes averaged, single round", "reference": "mean of 7-mers", "direction": "higher = stronger binding", "Residues (chain)": "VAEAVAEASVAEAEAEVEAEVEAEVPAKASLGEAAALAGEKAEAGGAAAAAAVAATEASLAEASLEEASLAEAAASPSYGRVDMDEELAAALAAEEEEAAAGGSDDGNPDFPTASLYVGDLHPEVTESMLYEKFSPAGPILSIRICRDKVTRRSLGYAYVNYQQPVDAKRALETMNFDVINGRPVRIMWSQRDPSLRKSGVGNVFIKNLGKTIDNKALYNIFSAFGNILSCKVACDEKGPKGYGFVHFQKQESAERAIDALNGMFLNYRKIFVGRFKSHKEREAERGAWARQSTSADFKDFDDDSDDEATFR"}
{"Sequence": "CACGCAC", "7-mer Z-score": -0.0591}
{"Sequence": "CACACUG", "7-mer Z-score": -0.213}
{"Sequence": "AUAGCAG", "7-mer Z-score": 0.046}
{"Sequence": "AGCAGUC", "7-mer Z-score": 0.0189}
{"Sequence": "UCUAAAU", "7-mer Z-score": 0.273}
{"Sequence": "GCGACCA", "7-mer Z-score": 0.109}
{"Sequence": "ACGUCCG", "7-mer Z-score": -0.291}
{"Sequence": "AGCGAAU", "7-mer Z-score": -0.0228}
{"data": "Set 2", "target": "Protein C-ets-1 (ETS1, Homo sapiens, UniProt P14921, residues 1-441, K379A, full length assumed)", "technique": "protein-binding microarray", "form": "double-stranded DNA, one strand shown", "matrix": "in vitro", "concentration": "not given", "notes": "k-mer, scored over probes, only values ≥0.25", "direction": "higher = stronger binding", "Target sequence (chain)": "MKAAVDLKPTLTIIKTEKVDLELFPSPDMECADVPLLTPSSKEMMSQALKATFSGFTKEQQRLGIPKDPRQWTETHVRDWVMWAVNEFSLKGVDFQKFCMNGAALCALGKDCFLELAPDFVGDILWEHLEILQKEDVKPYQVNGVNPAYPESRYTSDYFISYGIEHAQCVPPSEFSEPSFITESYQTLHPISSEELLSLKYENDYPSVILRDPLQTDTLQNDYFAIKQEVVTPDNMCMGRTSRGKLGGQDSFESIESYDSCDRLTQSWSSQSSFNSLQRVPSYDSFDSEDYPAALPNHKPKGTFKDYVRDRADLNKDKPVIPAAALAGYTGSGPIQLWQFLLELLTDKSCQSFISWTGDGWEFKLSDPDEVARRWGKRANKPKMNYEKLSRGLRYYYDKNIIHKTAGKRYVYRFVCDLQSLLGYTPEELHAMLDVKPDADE"}
{"Sequence": "ACAGGATG", "E-score": 0.262}
{"Sequence": "CCGTACCG", "E-score": 0.262}
{"Sequence": "AAACCGCC", "E-score": 0.255}
{"Sequence": "CGACAATA", "E-score": 0.257}
{"Sequence": "GGACGTCC", "E-score": 0.283}
{"Sequence": "ACCGGACG", "E-score": 0.31}
{"Sequence": "CATATGGG", "E-score": 0.263}
{"Sequence": "CTACTGTA", "E-score": 0.294}
{"data": "Set 3", "Compound": "O=C(N[C@H]1CCCCC/C=C\\C2C[C@@]2(C(=O)O)NC(=O)[C@@H]2C[C@@H](Oc3ccncc3)CN2C1=O)OC1CCCC1 (stereo partly shown)", "technique": "competition with immobilised ligand", "concentration": "1 µM"}
{"target": "Serine/threonine-protein kinase D3 (PRKD3, Homo sapiens, UniProt O94806)", "assay": "binding", "remaining binding": "82%"}
{"target": "Receptor-type tyrosine-protein kinase FLT3 (FLT3, Homo sapiens, UniProt P36888, ITD)", "assay": "binding", "remaining binding": "100%"}
{"target": "Rhodopsin kinase GRK7 (GRK7, Homo sapiens, UniProt Q8WTQ7)", "assay": "binding", "remaining binding": "100%"}
{"target": "Serine/threonine-protein kinase MARK1 (MARK1, Homo sapiens, UniProt Q9P0L2)", "assay": "binding", "remaining binding": "100%"}
{"target": "Activin receptor type-1 (ACVR1, Homo sapiens, UniProt Q04771)", "assay": "cell-free assay", "remaining binding": "100%"}
{"target": "Proto-oncogene tyrosine-protein kinase receptor Ret (RET, Homo sapiens, UniProt P07949, V804L)", "assay": "binding", "remaining binding": "86%"}
{"target": "Macrophage-stimulating protein receptor (MST1R, Homo sapiens, UniProt Q04912)", "assay": "cell-free assay", "remaining binding": "97%"}
{"target": "Tyrosine-protein kinase JAK2, JH1 (JAK2, Homo sapiens, UniProt O60674)", "assay": "binding", "remaining binding": "100%"}
{"target": "Serine/threonine-protein kinase 33 (STK33, Homo sapiens, UniProt Q9BYT3)", "assay": "binding", "remaining binding": "89%"}
{"target": "Mitogen-activated protein kinase kinase kinase 2 (MAP3K2, Homo sapiens, UniProt Q9Y2U5)", "assay": "binding", "remaining binding": "69%"}
{"target": "Tyrosine-protein kinase ABL1, phosphorylated (ABL1, Homo sapiens, UniProt P00519, E255K)", "assay": "binding", "remaining binding": "80%"}
{"data": "Single results of other studies"}
{"Compound": "CCN(CCCNC(=O)Nc1cc(Br)cn(C)c1=O)S(C)(=O)=O", "test system": "human, microsomes or S9", "conditions": "2 µM, 0.5 h", "measurement": "remaining compound", "value": "76%"}
{"note": "A few entries again (set 1):"}
{"Sequence": "CACACUG", "7-mer Z-score": -0.213}
{"Sequence": "AUAGCAG", "7-mer Z-score": 0.046}
{"Sequence": "AGCAGUC", "7-mer Z-score": 0.0189}
{"Sequence": "UCUAAAU", "7-mer Z-score": 0.273}
